Measurements gathered from unrelated publications.
Each numbered part is a random draw from the data of one study; scales do not carry over between parts. “And” joins repeats or separate records; there may be more than shown.
Sequence of UniProt P10721 (whole entry, unmodified, looked up): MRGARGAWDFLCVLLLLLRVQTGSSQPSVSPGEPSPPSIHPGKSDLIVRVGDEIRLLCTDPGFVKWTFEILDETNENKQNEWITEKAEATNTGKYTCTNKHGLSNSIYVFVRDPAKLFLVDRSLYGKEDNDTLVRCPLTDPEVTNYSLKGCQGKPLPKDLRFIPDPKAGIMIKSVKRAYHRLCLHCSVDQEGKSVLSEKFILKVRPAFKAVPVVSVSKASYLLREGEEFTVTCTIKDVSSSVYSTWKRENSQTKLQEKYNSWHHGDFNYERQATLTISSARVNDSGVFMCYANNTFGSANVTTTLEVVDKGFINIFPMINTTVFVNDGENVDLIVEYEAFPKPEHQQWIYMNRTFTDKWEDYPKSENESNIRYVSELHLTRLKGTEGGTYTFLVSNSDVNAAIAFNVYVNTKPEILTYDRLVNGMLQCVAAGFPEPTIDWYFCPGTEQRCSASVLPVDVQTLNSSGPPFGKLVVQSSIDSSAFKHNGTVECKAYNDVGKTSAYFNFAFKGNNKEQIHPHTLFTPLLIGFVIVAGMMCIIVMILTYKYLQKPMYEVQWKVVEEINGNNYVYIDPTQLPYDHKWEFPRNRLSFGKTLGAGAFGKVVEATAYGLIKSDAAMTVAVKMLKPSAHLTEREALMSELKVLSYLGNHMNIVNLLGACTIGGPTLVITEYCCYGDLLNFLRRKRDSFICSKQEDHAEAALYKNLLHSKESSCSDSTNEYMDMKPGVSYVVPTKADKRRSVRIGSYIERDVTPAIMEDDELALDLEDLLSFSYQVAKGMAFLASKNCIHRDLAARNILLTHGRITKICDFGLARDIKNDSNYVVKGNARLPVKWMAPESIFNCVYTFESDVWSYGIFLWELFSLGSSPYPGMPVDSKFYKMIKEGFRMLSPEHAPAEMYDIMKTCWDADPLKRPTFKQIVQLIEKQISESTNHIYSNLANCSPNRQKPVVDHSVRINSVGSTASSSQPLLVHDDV
Sequence of UniProt Q9BXA7 (whole entry, looked up): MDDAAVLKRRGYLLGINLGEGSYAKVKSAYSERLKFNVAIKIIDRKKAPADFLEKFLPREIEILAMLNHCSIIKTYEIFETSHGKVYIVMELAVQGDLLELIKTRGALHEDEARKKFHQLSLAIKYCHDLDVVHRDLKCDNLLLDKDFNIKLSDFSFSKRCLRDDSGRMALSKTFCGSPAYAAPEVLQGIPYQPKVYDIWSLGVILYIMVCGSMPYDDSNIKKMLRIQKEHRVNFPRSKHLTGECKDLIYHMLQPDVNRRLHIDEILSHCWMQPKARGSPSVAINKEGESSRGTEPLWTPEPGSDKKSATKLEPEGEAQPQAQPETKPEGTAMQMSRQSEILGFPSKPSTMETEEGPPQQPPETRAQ
Sequence of UniProt Q12851 (whole entry, looked up): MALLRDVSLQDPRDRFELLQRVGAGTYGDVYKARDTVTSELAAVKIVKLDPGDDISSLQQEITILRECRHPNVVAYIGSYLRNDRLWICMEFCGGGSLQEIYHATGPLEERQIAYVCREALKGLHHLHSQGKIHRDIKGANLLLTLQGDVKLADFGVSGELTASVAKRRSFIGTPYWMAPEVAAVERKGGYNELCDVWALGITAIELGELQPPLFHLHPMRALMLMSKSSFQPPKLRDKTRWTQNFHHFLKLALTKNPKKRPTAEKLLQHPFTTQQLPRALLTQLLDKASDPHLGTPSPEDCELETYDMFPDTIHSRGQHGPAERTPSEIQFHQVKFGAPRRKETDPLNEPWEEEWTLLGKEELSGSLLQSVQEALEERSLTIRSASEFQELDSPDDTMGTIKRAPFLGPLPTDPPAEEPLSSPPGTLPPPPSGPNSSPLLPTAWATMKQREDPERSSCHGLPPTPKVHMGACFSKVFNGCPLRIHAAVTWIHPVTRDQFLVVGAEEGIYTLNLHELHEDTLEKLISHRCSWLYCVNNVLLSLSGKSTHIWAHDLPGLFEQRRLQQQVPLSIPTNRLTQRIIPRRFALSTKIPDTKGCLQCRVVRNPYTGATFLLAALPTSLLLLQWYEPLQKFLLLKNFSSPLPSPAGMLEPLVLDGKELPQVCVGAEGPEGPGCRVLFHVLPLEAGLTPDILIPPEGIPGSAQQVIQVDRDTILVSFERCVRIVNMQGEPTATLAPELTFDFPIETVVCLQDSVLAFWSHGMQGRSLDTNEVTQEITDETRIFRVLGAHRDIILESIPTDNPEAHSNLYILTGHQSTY
Sequence of UniProt P54756 (whole entry, looked up): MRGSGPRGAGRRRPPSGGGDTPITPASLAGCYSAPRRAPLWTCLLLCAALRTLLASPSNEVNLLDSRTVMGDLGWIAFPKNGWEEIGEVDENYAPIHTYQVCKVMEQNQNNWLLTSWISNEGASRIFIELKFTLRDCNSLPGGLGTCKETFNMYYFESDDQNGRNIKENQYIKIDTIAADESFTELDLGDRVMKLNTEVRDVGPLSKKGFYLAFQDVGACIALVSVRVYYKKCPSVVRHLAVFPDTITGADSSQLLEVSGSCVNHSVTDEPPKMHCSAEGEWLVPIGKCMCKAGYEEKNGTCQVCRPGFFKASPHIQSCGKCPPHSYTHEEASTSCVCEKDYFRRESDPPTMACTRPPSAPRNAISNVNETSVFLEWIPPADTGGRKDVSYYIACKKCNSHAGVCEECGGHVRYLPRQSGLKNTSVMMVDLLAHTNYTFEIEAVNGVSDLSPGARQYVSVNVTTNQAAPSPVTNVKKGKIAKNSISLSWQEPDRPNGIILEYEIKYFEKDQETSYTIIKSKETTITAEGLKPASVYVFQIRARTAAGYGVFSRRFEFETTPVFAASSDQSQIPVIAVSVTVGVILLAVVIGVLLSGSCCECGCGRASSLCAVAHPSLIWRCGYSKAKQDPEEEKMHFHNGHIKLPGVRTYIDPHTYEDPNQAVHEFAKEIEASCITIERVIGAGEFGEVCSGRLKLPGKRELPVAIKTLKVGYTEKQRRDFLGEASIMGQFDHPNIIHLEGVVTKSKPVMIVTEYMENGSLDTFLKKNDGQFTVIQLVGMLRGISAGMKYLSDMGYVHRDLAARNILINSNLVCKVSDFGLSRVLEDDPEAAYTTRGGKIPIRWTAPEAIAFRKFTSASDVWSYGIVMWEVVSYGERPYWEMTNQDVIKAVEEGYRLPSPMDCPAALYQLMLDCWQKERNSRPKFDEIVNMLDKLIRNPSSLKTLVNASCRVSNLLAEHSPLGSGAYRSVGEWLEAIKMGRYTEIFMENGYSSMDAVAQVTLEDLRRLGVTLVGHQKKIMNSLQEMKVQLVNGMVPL
Sequence of UniProt O43318 (whole entry, looked up): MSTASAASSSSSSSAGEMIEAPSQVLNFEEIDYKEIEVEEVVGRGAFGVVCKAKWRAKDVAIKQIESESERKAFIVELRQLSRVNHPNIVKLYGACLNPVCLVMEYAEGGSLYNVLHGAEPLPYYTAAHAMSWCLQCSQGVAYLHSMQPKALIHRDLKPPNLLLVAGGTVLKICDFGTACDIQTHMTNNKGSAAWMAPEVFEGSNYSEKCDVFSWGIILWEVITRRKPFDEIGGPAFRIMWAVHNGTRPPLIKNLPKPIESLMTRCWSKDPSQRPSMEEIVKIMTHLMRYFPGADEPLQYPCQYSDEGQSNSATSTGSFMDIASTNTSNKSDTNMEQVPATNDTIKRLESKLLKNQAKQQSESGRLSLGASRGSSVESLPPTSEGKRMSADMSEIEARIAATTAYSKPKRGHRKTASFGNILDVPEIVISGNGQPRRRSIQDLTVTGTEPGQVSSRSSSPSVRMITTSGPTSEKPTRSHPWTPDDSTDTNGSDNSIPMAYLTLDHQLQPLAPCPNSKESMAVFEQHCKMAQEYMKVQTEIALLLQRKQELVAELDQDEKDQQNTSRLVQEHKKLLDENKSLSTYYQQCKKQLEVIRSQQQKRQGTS
Sequence of UniProt O14757 (whole entry, looked up): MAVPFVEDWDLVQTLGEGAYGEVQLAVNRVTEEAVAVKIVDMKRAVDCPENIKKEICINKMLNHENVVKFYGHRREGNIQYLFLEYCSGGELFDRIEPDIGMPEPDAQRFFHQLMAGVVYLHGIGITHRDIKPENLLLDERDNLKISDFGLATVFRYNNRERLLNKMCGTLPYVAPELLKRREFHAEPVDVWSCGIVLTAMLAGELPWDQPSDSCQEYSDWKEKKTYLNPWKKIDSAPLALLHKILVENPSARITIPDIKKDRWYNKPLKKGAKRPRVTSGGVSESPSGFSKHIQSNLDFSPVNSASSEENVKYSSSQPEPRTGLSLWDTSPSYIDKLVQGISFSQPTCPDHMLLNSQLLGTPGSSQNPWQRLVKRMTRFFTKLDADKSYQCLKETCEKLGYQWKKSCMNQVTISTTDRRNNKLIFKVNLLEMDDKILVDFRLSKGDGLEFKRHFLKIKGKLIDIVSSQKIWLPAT

Series 1
Structure (SMILES): c1ccc(N2CCN(Cc3nc4ccccc4[nH]3)CC2)nc1
Tested at: 1 µM
target | test | remaining binding
CDK19 (Homo sapiens, UniProt Q9BWU1) | competition binding | 87%
MAP3K13 (Homo sapiens, UniProt O43283) | binding, competition with immobilised ligand | 86%
MAP3K15 (Homo sapiens, UniProt Q6ZN16) | binding, competition with immobilised ligand | 100%
ERN1 (Homo sapiens, UniProt O75460) | cell-free assay, competition with immobilised ligand | 100%
MAP3K7 (Homo sapiens, UniProt O43318) | binding, competition with immobilised ligand | 52%
MARK4 (Homo sapiens, UniProt Q96L34) | binding, competition with immobilised ligand | 100%
MAP2K2 (Homo sapiens, UniProt P36507) | binding, competition with immobilised ligand | 100%
EPHA7 (Homo sapiens, UniProt Q15375) | cell-free assay, competition with immobilised ligand | 100%
TXK (Homo sapiens, UniProt P42681) | binding, competition with immobilised ligand | 95%
SRC (Homo sapiens, UniProt P12931) | cell-free assay, competition with immobilised ligand | 93%
Ribosomal protein S6 kinase alpha-6, N-terminal kinase domain (RPS6KA6, Homo sapiens, UniProt Q9UK32) | binding, competition with immobilised ligand | 100%
MARK2 (Homo sapiens, UniProt Q7KZI7) | binding, competition with immobilised ligand | 100%
TSSK1B (Homo sapiens, UniProt Q9BXA7) | binding, competition with immobilised ligand | 100%
CHEK2 (Homo sapiens, UniProt O96017) | binding, competition with immobilised ligand | 100%
NEK7 (Homo sapiens, UniProt Q8TDX7) | binding, competition with immobilised ligand | 100%
CSNK1D (Homo sapiens, UniProt P48730) | cell-free assay, competition with immobilised ligand | 95%
CHUK (Homo sapiens, UniProt O15111) | cell-free assay, competition with immobilised ligand | 100%
CDC42BPB (Homo sapiens, UniProt Q9Y5S2) | cell-free assay, competition with immobilised ligand | 100%
EGFR (Homo sapiens, UniProt P00533, del746-750) | cell-free assay, competition with immobilised ligand | 100%
SBK1 (Homo sapiens, UniProt Q52WX2) | binding, competition with immobilised ligand | 100%
KIT (Homo sapiens, UniProt P10721, L576P) | binding, competition with immobilised ligand | 100%
STK3 (Homo sapiens, UniProt Q13188) | binding, competition with immobilised ligand | 100%
MET (Homo sapiens, UniProt P08581, Y1235D) | cell-free assay, competition with immobilised ligand | 100%
NEK9 (Homo sapiens, UniProt Q8TD19) | binding, competition with immobilised ligand | 100%

Series 2
Organism: Plasmodium berghei
Cell line: Huh-7
Strain: liver stage
Tested at: 10 µM
Time: 24 h
Relative to: control
Compound | parasite load
CN(C)c1ccc2nc3ccc(=[N+](C)C)cc-3sc2c1 | 18.5%
CCN(CC)CCOc1ccc(C(=C(Cl)c2ccccc2)c2ccccc2)cc1 | 6.68%
Cc1cc(NS(=O)(=O)c2ccc(N)cc2)no1 | 109%
Clc1ccccc1C(c1ccccc1)(c1ccccc1)n1ccnc1 | 45%
O=C1CCc2ccc(OCCCCN3CCN(c4cccc(Cl)c4Cl)CC3)cc2N1 | 65.5%
CN(C)C(=O)Oc1cccc([N+](C)(C)C)c1 | 109%
CN(C)CCCN1c2ccccc2Sc2ccc(C(F)(F)F)cc21 | 125%
CCn1cc(C(=O)O)c(=O)c2cc(F)c(N3CCN(C)CC3)cc21 | 87.8%
CC(C(=O)O)c1cccc(C(=O)c2ccccc2)c1 (stereo not shown) | 106%
NC(=O)C(c1ccccc1)(c1ccccc1)[C@@H]1CCN(CCc2ccc3c(c2)CCO3)C1 | 95.9%
O=c1n(CCCN2CCN(c3cccc(Cl)c3)CC2)nc2ccccn12 | 89.8%

Series 3
Cell line: mouse MPNST tumor cells
Method: high-content nuclear imaging
Measured: cell number
Tested at: 10 µM
Time: 12 h
Setting: mean of 2 replicates
Relative to: plate mean
Reading: higher = more cells
Structure (SMILES) | nuclei count
Cc1c(N)c(=O)n(-c2ccccc2)n1C | 3.11 z-score
CN1CCc2c(c3ccccc3n2Cc2ccccc2)C1 | 2.54 z-score
COc1ccccc1CN[C@H]1CCCN[C@H]1c1ccccc1 | 3.34 z-score
CCC[C@@H]1C[C@@H](C(=O)N[C@@H]([C@H]2O[C@H](SC)[C@H](O)[C@@H](O)[C@H]2O)[C@@H](C)O)N(C)C1 | 0.478 z-score
Nc1cccc2c1CN(C1CCC(=O)NC1=O)C2=O (stereo not shown) | 1.84 z-score
CC(C)(C(=O)O)c1ccc(C(O)CCCN2CCC(C(O)(c3ccccc3)c3ccccc3)CC2)cc1 (stereo not shown) | 0.64 z-score and 1.16 z-score
O=C1c2ccccc2S(=O)(=O)N1CCCCN1CCN(c2ncccn2)CC1 | -0.0709 z-score
C[C@H](NC[C@H](O)CP(=O)(O)CC1CCCCC1)c1ccc(Cl)c(Cl)c1 | -0.0137 z-score
CCOc1cc(N)c(Cl)cc1C(=O)NCC1CN(Cc2ccc(F)cc2)CCO1 (stereo not shown) | 2.16 z-score
COC(=O)Nc1nc2cc(C(=O)c3ccccc3)ccc2[nH]1 | -4.72 z-score
COc1cc(-c2cc(-c3cccc(O)c3)cnc2N)cc(OC)c1OC | 0.209 z-score
COC(=O)c1c(C)[nH]c(C)c1C(=O)c1ccccc1Cc1ccccc1 | 1.24 z-score
CCOc1ccc2nc(S(N)(=O)=O)sc2c1 | -1.11 z-score
Cc1ccc(C(=O)N(CCCN)[C@@H](c2oc3cc(Cl)ccc3c(=O)c2Cc2ccccc2)C(C)C)cc1 | -4.9 z-score
COC(=O)C(Cc1ccc(OCCn2c(=O)sc3cc(C(=O)c4ccccc4)ccc32)cc1)C(=O)OC | -0.0778 z-score

Series 4
Compound: CC#CC(=O)Nc1cc2c(Nc3ccc(F)c(Cl)c3)ncnc2cn1
Observed: enzyme activity
Action: inhibitor
Tested at: 0.5 µM
Relative to: control
target | remaining activity
MAPK13 (Homo sapiens, UniProt O15264) | 105%
KIT (Homo sapiens, UniProt P10721) | 98.5%
PRKCI (Homo sapiens, UniProt P41743) | 96.6%
PRKG1 (Homo sapiens, UniProt Q13976) | 97.6%
CSNK2A1 (Homo sapiens, UniProt P68400) | 90.9%
MAPK12 (Homo sapiens, UniProt P53778) | 99.4%
Cyclin-dependent kinase 9, with cyclin T1 (CDK9, Homo sapiens, UniProt P50750) | 90.6%
NEK4 (Homo sapiens, UniProt P51957) | 85.8%
PRKCD (Homo sapiens, UniProt Q05655) | 99.8%
MKNK2 (Homo sapiens, UniProt Q9HBH9) | 66%
LRRK2 (Homo sapiens, UniProt Q5S007) | 92.3%
EPHA5 (Homo sapiens, UniProt P54756) | 101%
MAP2K6 (Homo sapiens, UniProt P52564) | 100%
CHEK1 (Homo sapiens, UniProt O14757) | 106%
AKT3 (Homo sapiens, UniProt Q9Y243) | 97.8%
LYN (Homo sapiens, UniProt P07948) | 88.3%
MAP3K10 (Homo sapiens, UniProt Q02779) | 98.9%
IRAK4 (Homo sapiens, UniProt Q9NWZ3) | 102%
CSNK1A1 (Homo sapiens, UniProt P48729) | 107%
PLK2 (Homo sapiens, UniProt Q9NYY3) | 103%
BTK (Homo sapiens, UniProt Q06187) | 2.88%
MAP4K2 (Homo sapiens, UniProt Q12851) | 114%
WNK2 (Homo sapiens, UniProt Q9Y3S1) | 107%

For quick reference, copied from above (series 1):
target | test | remaining binding
SBK1 (Homo sapiens, UniProt Q52WX2) | binding, competition with immobilised ligand | 100%
TXK (Homo sapiens, UniProt P42681) | binding, competition with immobilised ligand | 95%
EPHA7 (Homo sapiens, UniProt Q15375) | cell-free assay, competition with immobilised ligand | 100%
CDK19 (Homo sapiens, UniProt Q9BWU1) | competition binding | 87%
NEK7 (Homo sapiens, UniProt Q8TDX7) | binding, competition with immobilised ligand | 100%
CDC42BPB (Homo sapiens, UniProt Q9Y5S2) | cell-free assay, competition with immobilised ligand | 100%
ERN1 (Homo sapiens, UniProt O75460) | cell-free assay, competition with immobilised ligand | 100%
MAP3K7 (Homo sapiens, UniProt O43318) | binding, competition with immobilised ligand | 52%
KIT (Homo sapiens, UniProt P10721, L576P) | binding, competition with immobilised ligand | 100%
